# Measurements of several laboratories.
# Protocols differ between the studies behind these lines. Numbers after ± are the reported error.
# Cell line: LO2
Compound,read-out,technique,tested at,time,quantity,result
CN(C)C(=NN=C(c1ccccc1)c1ccccn1)[S][Ga]([Cl])[Cl],,MTT,,48 h,IC50,18.9 ± 1.64 µM
C=C(CC)C(=O)c1ccc(OCC(=O)NCCCCNC(=O)COc2ccc(C(=O)C(=C)CC)c(Cl)c2Cl)c(Cl)c1Cl,cell growth,CCK-8,,72 h,IC10,~0.2 µM
Cc1ccc(/C=N/NC(=O)c2cc3cc(Nc4nccc(-c5cccnc5)n4)ccc3[nH]2)cc1,cell viability,MTT,,48 h,IC50,> 50 µM
Clc1ccc2ccc3[n+](c2c1)[Ir-3]12([c]4ccccc4-3)([c]3ccccc3-c3ccc4ccc(Cl)cc4[n+]31)[n+]1ccccc1-c1cccc[n+]12.F[P-](F)(F)(F)(F)F,cell growth,MTT,,72 h,IC50,1.07 ± 0.21 µM
C=C(CC)C(=O)c1ccc(OCC(=O)NCCNC(=O)COc2ccc(C(=O)C(=C)CC)c(Cl)c2Cl)c(Cl)c1Cl,cell growth,CCK-8,,72 h,IC10,~1.2 µM
CN(C(=NN=C(c1ccccc1)c1ccccn1)[S][Ga]([Cl])[Cl])C1CCCCC1,,MTT,,48 h,IC50,10.7 ± 1.69 µM
COc1ccccc1/C=N/NC(=O)c1cc2cc(Nc3nccc(-c4cccnc4)n3)ccc2[nH]1,cell viability,MTT,,48 h,IC50,> 50 µM
O=C(/C=C/CCc1ccc(O)cc1)/C=C/c1ccc(O)cc1,cell growth,MTT,34.0 µM,,inhibition,4.85%

# A few entries again:
Compound,read-out,technique,tested at,time,quantity,result
O=C(/C=C/CCc1ccc(O)cc1)/C=C/c1ccc(O)cc1,cell growth,MTT,34.0 µM,,inhibition,4.85%
